Experimental data of several laboratories.
A part holds a random share of what one study measured.

Series 1
Target: Ras GTPase-activating protein-binding protein 1, RRM domain (G3BP1, Homo sapiens, UniProt Q13283)
UniProt Q13283, sequence (whole entry, looked up): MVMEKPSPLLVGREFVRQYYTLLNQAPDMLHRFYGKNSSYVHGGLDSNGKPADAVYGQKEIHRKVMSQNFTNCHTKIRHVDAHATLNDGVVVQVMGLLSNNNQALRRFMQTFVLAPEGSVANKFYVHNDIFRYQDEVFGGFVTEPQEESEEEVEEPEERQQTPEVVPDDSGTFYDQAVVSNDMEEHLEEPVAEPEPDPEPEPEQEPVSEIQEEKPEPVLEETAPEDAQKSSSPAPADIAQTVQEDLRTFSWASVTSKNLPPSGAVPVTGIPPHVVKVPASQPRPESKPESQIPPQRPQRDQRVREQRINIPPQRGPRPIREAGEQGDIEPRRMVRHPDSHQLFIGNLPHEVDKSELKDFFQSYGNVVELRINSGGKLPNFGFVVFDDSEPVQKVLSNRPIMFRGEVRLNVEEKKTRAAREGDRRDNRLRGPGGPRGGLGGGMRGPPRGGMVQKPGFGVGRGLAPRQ
Technique: RNA Bind-n-Seq
Molecule type: RNA
Sample: in vitro
Concentration: 1 µM
Notes: whole 134-nt RNA, ends assumed
Together with: 150 mM KCl
Reference: input library
Reading: higher = stronger binding
Measurement: log2 enrichment
Shared flanks, not repeated: GGGAGUUCUACAGUCCGACGAUC … UGGAAUUCUCGGGUGUCAAGG
CCUGUGCUACACAUCGUAUGUACCGAAUCGGGUUUUUUUGGUUUUUUUGGUUUUUUUGGGGAAAGUAUUAUGUUACGCCGUUCGGAUCUG: -0.358
AGUCCUGUGCUACACAUCGUAUGUACCGAAUCGGGGUUUUGGGUUUUGGGUUUUGGGAAAGUAUUAUGUUACGCCGUUCGGAUCUGCACU: 0.468
AAGUCCUGUGCUACACAUCGUAUGUACCGAAUCAAACCCAAACCCAAACCCCCAAAAAAGUAUUAUGUUACGCCGUUCGGAUCUGCACUU: -0.123
CUCAAGUCCUGUGCUACACAUCGUAUGUACCGAAUCGGGUGGGAAAGGGUGGGAAAGUAUUAUGUUACGCCGUUCGGAUCUGCACUUCCA: 0.783
GCAGGAAGUAAAAACAAAUGGAAAUGCUUCGGAUAGUGGCAGGGGUGGGUGUUGCUAAGGAAAGGGUGGGAUGGGAGUGGGUAAAGAGUU: 1.21
CUCAAGUCCUGUGCUACACAUCGUAUGUACCGAAUCGGGGAAGGGAAGGAAGGAAAGUAUUAUGUUACGCCGUUCGGAUCUGCACUUCCA: -0.387
ACCAUGCAGAUGGGCAUCUUUGGGAAGUGGGGCAAGGGGGGGAUAGGGAGGGGGGUAACACUUUGGGAACAGGUGGUCCCAGGUCGUUUC: -0.548
ACCAUGCAGGUGGGUAUCUUUGGGAAGUGGGGCAAGGGGGGGAUAGGGAGGGGGGUAACACUUUGGGAACAGGUGGUCCCAGGUCGUUUC: -0.498
CACAGACAACACGCACCCACACAGACACAGAGGGAAGGGGUUGGUAUGGGGACAGGGUGCACAGCAGGGCGGGGUAGGACCCCAGCCCCU: -0.0833
UCCUGUGCUACACAUCGUAUGUACCGAAUCGGGCCCCCCGGGCCCCCCGGGGCCCCCCGGAAAGUAUUAUGUUACGCCGUUCGGAUCUGC: -0.425

Series 2
Target: PABPC1L2, full length, GST fusion (mouse, UniProt A0ABA7IW68)
Technique: RNAcompete
Molecule type: RNA
Sample: in vitro
Concentration: 20 nM
Notes: 7-mer, probes averaged, single round
Reference: mean of 7-mers
Reading: higher = stronger binding
Measurement: 7-mer Z-score
Residues (chain): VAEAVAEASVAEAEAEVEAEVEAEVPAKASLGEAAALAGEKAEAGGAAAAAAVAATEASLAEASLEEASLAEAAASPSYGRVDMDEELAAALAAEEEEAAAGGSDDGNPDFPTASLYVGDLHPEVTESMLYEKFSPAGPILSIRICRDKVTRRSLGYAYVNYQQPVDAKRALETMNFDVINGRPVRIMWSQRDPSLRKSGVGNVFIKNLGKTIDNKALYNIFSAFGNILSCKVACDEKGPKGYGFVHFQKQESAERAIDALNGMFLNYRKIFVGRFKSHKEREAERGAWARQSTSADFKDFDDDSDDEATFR
AAAUCGA: 1.48
GAGGGAA: 0.495
GAUAUCU: -0.199
AUAUAAC: -0.012
GGAGGCG: 0.229
ACAGGGG: 0.425
AACAUUU: 0.227
AGCCCGC: -0.302
CCCUGAA: -0.195
ACACAGG: 0.247
CAAUUCA: -0.249
UGGCGUU: -0.128
GGGCCGG: 0.0315
AGGAUUA: 0.0279
UCGUUCC: -0.505
AGCAUAC: -0.104
GGUACGC: -0.0192

Series 3
Target: Sal-like protein 4, full length isoform B (SALL4, Homo sapiens, UniProt Q9UJQ4-2, residues 1-616)
Technique: universal PBM
Molecule type: double-stranded DNA, one strand shown
Sample: in vitro
Concentration: not given
Notes: 8-mer, flanks averaged, mean of replicates
Reading: higher = stronger binding
Measurement: E-score
Construct (chain): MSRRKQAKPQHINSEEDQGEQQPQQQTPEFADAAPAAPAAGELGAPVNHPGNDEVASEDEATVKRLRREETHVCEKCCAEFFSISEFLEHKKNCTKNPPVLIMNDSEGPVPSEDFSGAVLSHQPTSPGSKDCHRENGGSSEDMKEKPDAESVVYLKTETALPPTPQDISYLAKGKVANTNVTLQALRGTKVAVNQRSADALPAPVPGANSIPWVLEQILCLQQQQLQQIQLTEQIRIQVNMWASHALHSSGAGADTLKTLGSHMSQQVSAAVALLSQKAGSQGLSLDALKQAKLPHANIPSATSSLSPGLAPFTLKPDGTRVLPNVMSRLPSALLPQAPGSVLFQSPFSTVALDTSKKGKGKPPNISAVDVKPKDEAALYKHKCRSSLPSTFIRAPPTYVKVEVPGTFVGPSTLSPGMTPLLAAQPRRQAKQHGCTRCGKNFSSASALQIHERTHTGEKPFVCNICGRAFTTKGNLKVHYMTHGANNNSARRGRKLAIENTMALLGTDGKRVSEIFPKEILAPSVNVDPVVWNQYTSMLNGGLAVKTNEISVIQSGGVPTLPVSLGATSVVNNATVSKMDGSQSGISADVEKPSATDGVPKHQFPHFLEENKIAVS
AGAATAGA: 0.152
GAGCAACC: -0.197
TCAACTGA: 0.0245
CTATTCTC: -0.0678
CACGTGTC: -0.0533
AGACTGAT: -0.00294
ACGAGCTG: -0.17
ATGGGGAC: -0.226
CGATCATC: 0.0382
AGACACGG: -0.0674
ATCAGCTA: 0.0375
AATCTGCA: 0.0493
ACTGGGAC: 0.0286
AATACAAG: 0.264
GGCTCGGA: -0.25
AGAGTGTG: -0.0298
TCACCAGA: -0.176
ATGTGCTA: 0.169
CACCCAAG: -0.144
CCGGACTC: -0.123
GACCAGTA: -0.186
CAATGCAC: 0.0637

Series 4
Target: RNA binding protein fox-1 homolog 2, RRM domain, GST-SBP tag (RBFOX2, Homo sapiens, UniProt O43251-10, residues 100-194)
Technique: RNA Bind-n-Seq
Molecule type: RNA
Sample: in vitro
Concentration: 365 nM
Notes: natural RNA segment, single round, ends assumed
Reference: no-protein control
Reading: higher = stronger binding
Measurement: RBNS enrichment (R)
Shared flanks, not repeated: GGGAGUUCUACAGUCCGACGAUC … UGGAAUUCUCGGGUGCCAA
Construct (chain): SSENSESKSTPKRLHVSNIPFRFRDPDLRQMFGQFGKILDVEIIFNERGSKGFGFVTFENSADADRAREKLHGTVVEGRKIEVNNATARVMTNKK
CUUGUUUCCUAACCGUGCAGUGGUAGGUAUUAGUACACUGGGCACUUCCCCAGGGAUCUGGGGAAGACCAGAGCUUGCAGCUCUGCCUGCUUUGAUCCAUAUUUCUCACA: 0.519
CCGAGGGUCCGGCAGGGCACAGGGACAGCCAGGUGGCACCGAGUCACAGGCUGUGGUCCGGUGGCUGAGCAUGCUGUUGUCUUGUCCUUGAUUUUAUUUUCUUUUGUUCU: 4.31
CGGCUUCAUUCACCCCCACUUGGAUUCUAAACAUGACCAGUGAAAUAGUGAAAGCUGACCACAGUUGUUCCCAAAUAAAGGUCGGCAGCUCCUACCAGGUCUGGGAUUGA: 0.25
AUCUCUUUUUUAAAAAAGGGGGUUUGACUAUUGUUGGCAUUCUUGUGGUUCCUUUAAAUGCCCUUACCUCUCCCAAGAGGUUGUUUUGUUUUGUUUUCCUCCCUUUUCUC: 0.773
AAAAAAAAGCAGAGUUUUUGUUUUUCAACCCUUUAUGUUUGUUUUGUUUUAUUCUUAAAUAAGCAAGCAAAACCUGCACAUUGGAUUCACGUGAGAUGAUAAUGAAAACU: 0.444
UCCUUAAUCCAACUUAUACCGGGUUGGAGGCACUUGUACUAUUUAUUUCCUGGGAAAUUUUGGUCAAAAGCCAGCUUCUUUUGCUGUCUUUAAUAAGAAAAACUUGAAGU: 0.3
ACUGAGUCUGCAGCGGGGGAGUGAACAAGUGUGCAGAUGUAAGUUCUUACAUGAUAAGCAGAUUGAAUACAACACCAGCAGCUUGCCUUAGAAAAGGAGAAAGGAAUUCC: 0.4
CUCUGGCUUGGGCCGGGCGUGGUGGCUCACACCUGUAAUCCCAACACUUUGGGAGGCCAAGGCAGGUAGAUCACUUGAUGCCAGGAGUUCCAGACCAGGCUGGCCGACAU: 0.228
UCUUGAGUUGCUGAUAGGAGAUGUGAGUUAUGCCCAGAGAUGUCUUAUCGUGAGGAAAAAGAAACUUCCUUUUGUUCACAUUUAGGACUCUCAGUGCCAUAUGAAGUAGC: 0.539
UUAGAUGACCUUUUUUUCUUAUAAUAUUUGCAAGUGACAAGUUUGAAAACAAAGCAAGAUCAGUGCAGAGAAGCCACAUGACAUGUUGGGUGACAGAUUGGUCAUUUAUU: 1.11
GACCAUUCACACUGAUUUUGUCUGGACAGUCUGGCCGCAGGUUAUUCAUAGAUUAUUCAGCCUUUGCAGGACUUGGAUUCAGGGUUUUACUCAGUCCCUUUACCUUAGGU: 0.31
GGGGAAUGGGGGCCCCAGGACAGCAUCAGGACUUUUGAGUCCAGCUGCCAGCAAUGGUUCCAACUCGGAGGCAGCGCCUCUUGGUCCCCAUUUCUGUAUAGCAGGCGUGU: 0.409

Series 5
Target: Histone acetyltransferase KAT6A, winged helix 1, GST fusion (KAT6A, Homo sapiens, UniProt Q92794, residues 1-85)
Technique: protein binding microarray
Molecule type: double-stranded DNA, one strand shown
Sample: in vitro
Concentration: not given
Notes: 8-mer, flanks averaged, mean of 2 arrays, mostly near background
Reference: not given
Reading: higher = stronger binding
Measurement: E-score
Construct (chain): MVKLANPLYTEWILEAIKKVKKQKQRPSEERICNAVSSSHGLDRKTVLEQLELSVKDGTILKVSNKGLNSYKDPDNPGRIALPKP
CACGATTC: -0.0174
AAGTCTGG: -0.35
GCGTCGGA: 0.402
CCTAATAC: -0.0557
AACATTGC: 0.0107
CGATATAC: 0.0696
ATCTGTAG: -0.0882
GATGGGAA: -0.127
GACGCCAC: 0.177
CGCAGTGC: 0.297
AGACACCC: -0.145
CCGTCCCA: 0.0926
CTGTTTAA: 0.0452
ACTGCCTG: -0.113
ATGGCAAA: -0.0858
AAGGTAAC: -0.0313
CACTGAGC: 0.0136
GTTATGTA: -0.0179
CGTCGATA: 0.227
CCGGGCGC: 0.408
AGGATGGA: -0.166

Some of these lines once more (series 5):
ATGGCAAA: -0.0858
GACGCCAC: 0.177
CCGTCCCA: 0.0926
CACTGAGC: 0.0136
CCTAATAC: -0.0557
CACGATTC: -0.0174
CGCAGTGC: 0.297
CCGGGCGC: 0.408
AAGGTAAC: -0.0313
